Published values from different studies.
A part holds a random share of what one study measured.

Study 1 — technique: competition protein-binding microarray; molecule type: double-stranded DNA, one strand shown; sample: in vitro; concentration: 2 µM; together with: Pho4 competitor, 0.05 µM; reading: higher = stronger binding; all sequences stand within: … GTCTTGATTCGCTTGACGCTGCTG
Target: Centromere-binding protein 1, full length, His-tagged (CBF1, Saccharomyces cerevisiae, UniProt P17106, residues 1-351)
Sequence of UniProt P17106 (whole entry, looked up): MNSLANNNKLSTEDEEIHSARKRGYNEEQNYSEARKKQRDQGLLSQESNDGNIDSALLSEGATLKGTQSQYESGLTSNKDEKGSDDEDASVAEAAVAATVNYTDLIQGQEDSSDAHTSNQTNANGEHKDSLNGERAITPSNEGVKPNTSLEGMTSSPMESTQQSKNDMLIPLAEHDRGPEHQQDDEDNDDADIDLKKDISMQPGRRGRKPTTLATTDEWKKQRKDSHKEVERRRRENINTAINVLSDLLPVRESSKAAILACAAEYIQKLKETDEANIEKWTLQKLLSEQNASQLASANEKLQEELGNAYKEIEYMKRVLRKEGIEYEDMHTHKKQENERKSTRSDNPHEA
Notes: whole 60-bp probe, lowest competitor level
| Oligonucleotide | fluorescence intensity [a.u.] |
| --- | --- |
| CGCGGCTCTTGGCAGCACGAGGTGGTTTCACTGCAG | 115 |
| CAATGTTTTTAAAAGCACGTGACTCGAATGTTACCC | 20400 |
| CGGGGTTAAGTTTGTCACTAAACTTGCTTGCAGCAG | 81 |
| CTTTCCCGATCTTGTCACCCCACTTTAGCACATTTG | 69.7 |
| ATGGTTAACAGTAATCTCGTGCTGTCAAACATAAAA | 201 |
| TCTTTGAAGGTGCGTCATGCTCACTGTTGAACTCTA | 60 |

Study 2 — technique: protein binding microarray; molecule type: double-stranded DNA, one strand shown; sample: in vitro; concentration: not given; relative to: not given; reading: higher = stronger binding
Target: Histone acetyltransferase KAT6A, winged helix 2, GST fusion (KAT6A, Homo sapiens, UniProt Q92794, residues 85-181)
Notes: 8-mer, flanks averaged, mean of 2 arrays, mostly near background
Target sequence (chain): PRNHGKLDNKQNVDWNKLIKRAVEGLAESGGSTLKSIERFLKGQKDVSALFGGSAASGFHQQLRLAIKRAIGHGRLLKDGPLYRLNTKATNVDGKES
| Oligonucleotide | E-score |
| --- | --- |
| AGTGTTTC | 0.0765 |
| CGGGATCA | -0.00186 |
| GCCTATAC | -0.129 |
| CGGTAGAC | -0.0363 |
| AAAGGCAT | 0.194 |
| CACCTGTA | -0.113 |

Study 3 — technique: protein-binding microarray; molecule type: double-stranded DNA, one strand shown; sample: in vitro; concentration: 2540 nM top; notes: 60-bp whole probe; together with: salmon DNA 0.4 mg/ml; relative to: random background probes; reading: higher = stronger binding; all sequences stand within: GCCTAGCAC … GTCTTGATTCGCTTGACGCTGCTG
Target: Interferon regulatory factor 3, full length, phosphomimetic (IRF3, Homo sapiens, UniProt Q14653, residues 1-427, S386D/S396D/S398D/S402D/T404D/S405D)
Sequence of UniProt Q14653 (whole entry, unmodified, looked up): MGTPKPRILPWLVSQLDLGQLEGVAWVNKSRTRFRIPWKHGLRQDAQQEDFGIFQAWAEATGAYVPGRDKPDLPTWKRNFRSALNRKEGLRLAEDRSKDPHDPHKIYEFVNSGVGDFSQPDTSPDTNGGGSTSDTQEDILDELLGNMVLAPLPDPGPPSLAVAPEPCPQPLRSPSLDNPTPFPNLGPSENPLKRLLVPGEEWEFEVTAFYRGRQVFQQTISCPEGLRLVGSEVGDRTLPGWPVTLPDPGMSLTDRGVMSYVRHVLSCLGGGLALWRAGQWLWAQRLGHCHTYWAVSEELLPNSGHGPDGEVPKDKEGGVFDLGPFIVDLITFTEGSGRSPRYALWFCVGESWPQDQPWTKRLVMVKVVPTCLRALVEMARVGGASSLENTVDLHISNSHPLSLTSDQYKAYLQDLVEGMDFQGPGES
| Oligonucleotide | fitted relative affinity [z-score] |
| --- | --- |
| TCAGGACTGGGTATCGGTTAGTGCTAG | 0.68 |
| TTAGAGATCGGGTTTCGATTAGTGCTA | 1.93 |
| GAAGAACTGGGGTATCGAGACGTGCTA | -0.801 |
| TTAGGTTTCGCTTCCGGTTAGTGCTAG | 7.4 |
| TTCTGGTTCCCATTCCAGGGGTGCTAG | 4.49 |

Other studies, line by line
| Molecule | target | test | test system | conditions | scale | measurement | result |
| --- | --- | --- | --- | --- | --- | --- | --- |
| PhoQ, residues 284 288 289 292 302 303 SCCLKL | PhoP, residues 12 14 15 18 19 SMASL (Escherichia coli, UniProt P23836) | Sort-seq, item: YFP reporter | E. coli | PhoQ-PhoP variant library, together with: 10 µM Mg2+ | relative to: high Mg2+ state, higher = stronger signaling | fold induction | 4.13 |

For quick reference, copied from above (study 3):
| Oligonucleotide | fitted relative affinity [z-score] |
| --- | --- |
| TTAGGTTTCGCTTCCGGTTAGTGCTAG | 7.4 |
| TCAGGACTGGGTATCGGTTAGTGCTAG | 0.68 |
